Assay results gathered from unrelated publications.
Numbered parts are unrelated; each lists some results of a single study. Substitutions count along the parent as printed.

Sample 1
Target: Sal-like protein 4, full length isoform A (SALL4, Homo sapiens, UniProt Q9UJQ4, residues 1-1053)
Sequence of UniProt Q9UJQ4 (whole entry, looked up): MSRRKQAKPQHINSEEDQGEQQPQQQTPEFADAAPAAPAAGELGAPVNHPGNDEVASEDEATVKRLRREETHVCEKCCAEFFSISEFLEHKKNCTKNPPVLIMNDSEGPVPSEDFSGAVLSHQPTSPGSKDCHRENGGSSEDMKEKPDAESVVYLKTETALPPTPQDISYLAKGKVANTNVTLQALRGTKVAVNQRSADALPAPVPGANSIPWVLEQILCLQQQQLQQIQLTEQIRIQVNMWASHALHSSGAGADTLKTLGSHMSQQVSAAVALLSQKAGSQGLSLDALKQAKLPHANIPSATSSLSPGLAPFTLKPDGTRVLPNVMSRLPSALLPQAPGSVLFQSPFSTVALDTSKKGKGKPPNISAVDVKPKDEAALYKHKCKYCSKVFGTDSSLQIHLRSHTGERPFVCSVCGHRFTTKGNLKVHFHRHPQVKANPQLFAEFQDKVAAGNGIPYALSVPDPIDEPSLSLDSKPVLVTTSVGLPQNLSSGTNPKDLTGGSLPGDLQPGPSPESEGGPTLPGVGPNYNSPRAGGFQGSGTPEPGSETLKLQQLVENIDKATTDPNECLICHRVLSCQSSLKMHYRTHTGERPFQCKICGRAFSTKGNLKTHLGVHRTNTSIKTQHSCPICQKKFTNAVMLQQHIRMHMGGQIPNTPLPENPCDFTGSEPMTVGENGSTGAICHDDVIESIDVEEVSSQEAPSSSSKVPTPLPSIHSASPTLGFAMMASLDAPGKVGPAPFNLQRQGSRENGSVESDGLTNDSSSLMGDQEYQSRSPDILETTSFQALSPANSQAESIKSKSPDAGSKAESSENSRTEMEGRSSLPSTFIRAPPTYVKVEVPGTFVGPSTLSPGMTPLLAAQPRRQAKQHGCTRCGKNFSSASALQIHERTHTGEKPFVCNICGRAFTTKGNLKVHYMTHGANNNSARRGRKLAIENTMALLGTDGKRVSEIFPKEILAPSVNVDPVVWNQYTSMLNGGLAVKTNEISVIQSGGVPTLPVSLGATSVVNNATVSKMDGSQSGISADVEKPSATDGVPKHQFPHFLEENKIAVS
Method: universal PBM
Form: double-stranded DNA, one strand shown
Sample: in vitro
Tested at: 600 nM
Notes: 8-mer, flanks averaged, mean of replicates
Reading: higher = stronger binding
`ATGGACTG` gave an E-score of -0.00796.
`GGATATCA` has an E-score of 0.0867.
For `ACGAGCGG`, the E-score was -0.229.
`CCAGTGGC` gave an E-score of -0.339.
With `ACCCCATC` the E-score was -0.153.
`ATCCGTAC` gave an E-score of 0.128.
With `AAGGGGCT` the E-score was -0.0938.

Sample 2
Target: CCNE2, cyclin fold, Cln2 fusion (human)
Method: yeast growth competition, sequencing
Sample: yeast
Notes: strong parent motif
Relative to: not given
Reading: higher = stronger binding
Starting sequence: E2F1 docking peptide (human); PPVKRRLDLETDH
`PPVKRRLDLWTDH [E10W]`: “normalised enrichment score” 1.23.
`PPVKRRLDLETTH [D12T]` — result for “normalised enrichment score”: 0.993.
`PPVKRRLDLVTDH [E10V]` — result for “normalised enrichment score”: 1.33.
Under “normalised enrichment score”, `PPVIRRLDLETDH [K4I]` is recorded as 0.343.
For `PEVKRRLDLETDH [P2E]`, “normalised enrichment score” read 0.61.
`PPVKRRLVLETDH [D8V]` — result for “normalised enrichment score”: 2.72.
For `PPVKRRLGLETDH [D8G]`, “normalised enrichment score” read 1.97.
`PPVKRRKDLETDH [L7K]`: “normalised enrichment score” 0.677.
`PPVKRRLDLEPDH [T11P]` — result for “normalised enrichment score”: 2.22.
`PPVKRYLDLETDH [R6Y]`: “normalised enrichment score” 0.355.
`LPVKRRLDLETDH [P1L]` — result for “normalised enrichment score”: 2.75.

Sample 3
Target: ABI1, truncated, D143A, DHFR fusion (Arabidopsis thaliana)
Method: DHFR PCA, deep sequencing
Sample: yeast
Notes: methotrexate growth selection, single substitutions
Added: (+)-ABA 58 µM
Relative to: wild-type fitted maximum
Reading: higher = stronger binding
Starting sequence: PYL1, truncated, DHFR fusion (Arabidopsis thaliana); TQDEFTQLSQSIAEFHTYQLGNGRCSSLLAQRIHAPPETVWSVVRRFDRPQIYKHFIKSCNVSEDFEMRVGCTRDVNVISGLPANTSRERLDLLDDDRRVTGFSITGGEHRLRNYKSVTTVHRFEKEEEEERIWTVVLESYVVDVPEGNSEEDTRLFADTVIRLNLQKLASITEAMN; partner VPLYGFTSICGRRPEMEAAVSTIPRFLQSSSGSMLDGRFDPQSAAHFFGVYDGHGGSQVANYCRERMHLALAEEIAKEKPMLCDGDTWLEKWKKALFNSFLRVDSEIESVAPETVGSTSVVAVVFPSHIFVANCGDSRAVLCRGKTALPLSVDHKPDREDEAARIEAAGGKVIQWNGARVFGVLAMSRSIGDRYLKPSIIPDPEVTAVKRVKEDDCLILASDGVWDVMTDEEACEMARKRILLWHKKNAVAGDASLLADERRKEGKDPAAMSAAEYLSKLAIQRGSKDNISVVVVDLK
For `V142N`, “relative binding score” read 54.4%.
`E129H`: “relative binding score” 105%.
`K58D` — result for “relative binding score”: 68.6%.
For `I133L`, “relative binding score” read 90.7%.
`L82G`: “relative binding score” 23.3%.
`F15S`: “relative binding score” 41.1%.
Under “relative binding score”, `P50T` is recorded as -11.5%.

Further values, each from its own experiment
The fold induction of `PhoQ, residues 284 288 289 292 302 303 TLSLKA` is reported as 0.586 (PhoP, residues 12 14 15 18 19 NIMAP (Escherichia coli, UniProt P23836); Sort-seq, item: YFP reporter; E. coli; PhoQ-PhoP variant library, added: 10 µM Mg2+; relative to: high Mg2+ state, higher = stronger signaling).

Repeated from above (sample 3):
`K58D` — result for “relative binding score”: 68.6%.
For `I133L`, “relative binding score” read 90.7%.
`L82G`: “relative binding score” 23.3%.
